Assay results gathered from unrelated publications.
Each line is one published result; not all experiments were run side by side. Several values in a cell are separate wells, animals, samples, runs or records. In brackets after ≈: the same amount, converted by molar mass.

CCOC(=O)C1=C[C@@H](OC(CC)CC)[C@H](NC(C)=O)[C@@H](N)C1  IC50 (Influenza A virus A/California/07/2009 (H1N1)pdm09; viral replication, plaque reduction; wild type): 0.01 to 0.1 µM
CO[C@H]1/C=C/O[C@@]2(C)Oc3c(C)c(O)c4c(O)c(c(/C=N/N5CCN(C)CC5)c(O)c4c3C2=O)NC(=O)/C(C)=C\C=C\[C@H](C)[C@H](O)[C@@H](C)[C@@H](O)[C@@H](C)[C@H](OC(C)=O)[C@@H]1C  MIC (Mycobacteroides abscessus; RFB-R1 rifamycin-resistant RNAP mutant; 90% growth inhibition): > 100 µM
C[C@](O)(COc1ccc(C#N)cc1)C(=O)Nc1ccc(C#N)c(C(F)(F)F)c1  maximum inhibition (human coronavirus OC43; virus-induced cell killing; MRC-5; maximum over 10 doses): 0%
OC(Cn1cncn1)(Cn1cncn1)c1ccc(F)cc1F  OD600 (Saccharomyces cerevisiae; cell growth; Pdr5 deleted, empty vector; 2^-1.737 µg/mL): 0.669 and 0.584 and 0.572
CO/N=C(\C(=O)N[C@@H]1C(=O)N2C(C(=O)O)=C(CSC(=O)c3ccco3)CS[C@H]12)c1csc(N)n1  MIC (Salmonella enterica; 20 h, pH 7.2): 1 µg/mL
CC[C@H](C)[C@H](NC(=O)[C@H](CC(C)C)NC(=O)[C@H](CCCCN)NC(=O)[C@H](CCCCN)NC(=O)[C@H](CCCCN)NC(=O)[C@H](CCCCN)NC(=O)[C@H](CC(C)C)NC(=O)[C@@H](NC(=O)[C@@H](NC(=O)[C@@H](NC(=O)[C@H](CC(C)C)NC(=O)[C@H](CCCNC(=N)N)NC(=O)[C@H](CO)NC(=O)[C@@H](N)CO)C(C)C)[C@@H](C)CC)[C@@H](C)CC)C(=O)N[C@@H](CO)C(=O)N[C@@H](CCCCN)C(=O)N[C@@H](CCCCN)C(=O)N[C@@H](CCCCN)C(=O)N[C@@H](CCCCN)C(N)=O  MIC range (Acinetobacter baumannii, Enterococcus faecalis): 4 to 8 µM (≈ 8.95 to 17.9 µg/mL)
CC(=O)Nc1ccc(OC[C@](C)(O)C(=O)Nc2ccc([N+](=O)[O-])c(C(F)(F)F)c2)cc1  maximum inhibition (human coronavirus OC43; virus-induced cell killing; MRC-5; maximum over 10 doses): 0%
COc1ccccc1C(=O)NC1CCCN(Cc2cccc(-c3ccc(C)c(Cl)c3)c2)C1 (centres unmarked)  cytotoxicity efficacy (Vero-E6; CellTiter-Glo ATP; concentration not given, 72 h, first round 5-point; reference: DMSO 0%, hyamine -100%, more negative, more toxic): -11.5%
CC1(C)S[C@@H]2[C@H](NC(=O)[C@H](N)c3ccccc3)C(=O)N2[C@H]1C(=O)O  MIC (Salmonella enterica; 20 h, pH 7): 2 µg/mL
CC(O)(CS(=O)(=O)c1ccc(F)cc1)C(=O)Nc1ccc(C#N)c(C(F)(F)F)c1 (centres unmarked)  maximum inhibition (human coronavirus OC43; virus-induced cell killing; MRC-5; maximum over 10 doses): 0%
COc1cc(Cc2cnc(N)nc2N)cc(OC)c1OC  MIC (Salmonella enterica; 20 h, pH 7.2): 0.125 µg/mL
CS(=O)(=O)Nc1ncn(-c2cc(F)c(COc3ccc(OS(=O)(=O)F)cc3)c(F)c2)n1  MIC (Mycobacterium tuberculosis; clinical isolate): 0.063 µM
CN(C)[C@@H]1C(O)=C(C(N)=O)C(=O)[C@@]2(O)C(O)=C3C(=O)c4c(O)cccc4[C@@](C)(O)[C@H]3C[C@@H]12  MIC (Salmonella enterica; 20 h, pH 7): 1 µg/mL
COc1ccc(-c2nc(CN3CCC(C(=O)NCCCN4CCN(c5ccccc5F)CC4)CC3)c(C)o2)cc1OC  cytotoxicity efficacy (Vero-E6; CellTiter-Glo ATP; concentration not given, 72 h, second round 5-point; reference: DMSO 0%, hyamine -100%, more negative, more toxic): -24.3%

Repeated from above:
CN(C)[C@@H]1C(O)=C(C(N)=O)C(=O)[C@@]2(O)C(O)=C3C(=O)c4c(O)cccc4[C@@](C)(O)[C@H]3C[C@@H]12  MIC (Salmonella enterica; 20 h, pH 7): 1 µg/mL
COc1ccc(-c2nc(CN3CCC(C(=O)NCCCN4CCN(c5ccccc5F)CC4)CC3)c(C)o2)cc1OC  cytotoxicity efficacy (Vero-E6; CellTiter-Glo ATP; concentration not given, 72 h, second round 5-point; reference: DMSO 0%, hyamine -100%, more negative, more toxic): -24.3%
